Assay results from different studies.
A part holds a random share of what one study measured. Changes are numbered by the printed parent chain.

Block 1
Target: RNA binding protein fox-1 homolog 2, RRM domain, GST-SBP tag (RBFOX2, Homo sapiens, UniProt O43251-10, residues 100-194)
Technique: RNA Bind-n-Seq
Form: RNA
Sample: in vitro
Concentration: 365 nM
Setting: natural RNA segment, single round, ends assumed
Relative to: no-protein control
Direction: higher = stronger binding
Residues (chain): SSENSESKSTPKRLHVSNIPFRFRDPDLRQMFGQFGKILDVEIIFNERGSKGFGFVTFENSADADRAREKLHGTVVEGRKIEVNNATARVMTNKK
Sequence | RBNS enrichment (R)
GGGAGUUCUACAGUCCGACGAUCUAUAAAUUUUAUGAAACCCAAGCAUAGUGCUUAUUUUUUAAUAAAACAACUGACUUAACACAUUGUGAUGAUGGGUUGGAAGUGGAGAGAUUUUUAUGUCUGUCCCCCCUUGGAAUUCUCGGGUGCCAA | 0.267
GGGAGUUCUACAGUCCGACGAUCAGGUGCUAUGUUACUUACAAGUAUUAUUAACCUAUUGGCUUCCAUUGUAUAGUAGUUUAGUAACUAUGAAGACUGGUUUGUAAGGAAGGAAACGUUUACUACUAAGGUUAUGGAAUUCUCGGGUGCCAA | 0.511
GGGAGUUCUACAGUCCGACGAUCCUGUGAUUAGGUACAAGCUUACCUUUUAGGGUAGAAAAAGAAAGAUCAUUUGAAAAAUGUAUCUAAAAUAAUCCAGAGAACAUAAUGUUUGUCUUGGUCUGAUAAUGAUAUGGAAUUCUCGGGUGCCAA | 0.342
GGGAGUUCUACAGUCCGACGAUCAUGGCAAUACUUUAGGGCAGAGAUAAAACCUUUUGGUAUUUUAGCUAGCCCCCAAAUCAAAAGCACUGUAUAGCAUUUCACACCGAGCCCCUCACCAAAACUCACACAGUUGGAAUUCUCGGGUGCCAA | 0.319
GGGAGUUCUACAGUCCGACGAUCUUUUACCAAACAGUAUUUACUCGUGAUGUGCGUAGUGCAUUCUGAUAUUUUUGAGCCAUUCUAUUGUGUUCUACUUCACCUAAAAAAAUAAAAUAAAAAUGUUGAUCAAGUGGAAUUCUCGGGUGCCAA | 0.419
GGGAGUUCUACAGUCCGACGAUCCCAUUUAGGCCUGACUGGGGUAAGAAAUGUCGCUCCACUUUACAGAGGUAGCUGUGGUGUUGAAACACUGGACUUGGAUAUGGGGUGCUGGGAUCGAUUCCUAGCUUUACUGGAAUUCUCGGGUGCCAA | 0.568
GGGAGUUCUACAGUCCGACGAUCUCAAUUACCCAUCACAUAAAUAUGAAACAUUUAUCAGAAAUGUUGCCAUUUUAAUGAGAUGAUUUUCUUCAUCUCAUAAUUAAAAUACCUGACUUUAGAGAGAGUAAAAUUGGAAUUCUCGGGUGCCAA | 0.394
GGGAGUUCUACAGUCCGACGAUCCCCAGCAUUUGGGAAACAGAGGCAAGAGGAUUGCUGCAAGUUUAAGGCCAGCCUGUCUACAUAGGGAGGUCCAGGCCAGGGAUGUAUAUCAAGAUCUUGUUUCAAAAAAUUGGAAUUCUCGGGUGCCAA | 0.86

Block 2
Target: Histone acetyltransferase KAT6A, winged helix 1, GST fusion (KAT6A, Homo sapiens, UniProt Q92794, residues 1-85)
Technique: protein binding microarray
Form: double-stranded DNA, one strand shown
Sample: in vitro
Concentration: not given
Setting: 8-mer, flanks averaged, mean of 2 arrays, mostly near background
Relative to: not given
Direction: higher = stronger binding
Residues (chain): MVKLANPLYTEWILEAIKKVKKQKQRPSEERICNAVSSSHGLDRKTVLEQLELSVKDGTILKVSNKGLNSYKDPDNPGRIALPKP
Sequence | E-score
ATGATTGC | -0.0112
GAGGGTCA | -0.0619
CCACATGA | -0.188
ATTTATTG | -0.204
CTGGATTA | -0.126
AGTTCGAG | -0.169
ACTGGTGC | 0.0162
AGTCCGCA | 0.175
GTCGGGAA | 0.176
AGGAGACA | -0.133
CCAAAACA | -0.124
ACATTCGC | 0.108
CGTACTAC | 0.206
GAAGGGGA | -0.139
CCCATTCA | -0.166
AATCGATA | -0.0929
AACTCCTT | -0.00024
AAGGCAAT | -0.2
TAATAGAA | -0.174
ATAGGTGC | -0.0468
CAGCACTA | 0.0169
AACCAGTA | -0.0609
ACAACTGG | -0.235
CGCCACCG | 0.254
CCTTACAC | -0.0166

Block 3
Target: Myc proto-oncogene protein, bHLH-zipper, MAX partner unstated (MYC, Homo sapiens, UniProt P01106, residues 368-449)
Sequence of UniProt P01106 (368-449, looked up): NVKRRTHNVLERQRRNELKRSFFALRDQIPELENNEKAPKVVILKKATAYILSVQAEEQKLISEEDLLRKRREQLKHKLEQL
Technique: protein-binding microarray
Form: double-stranded DNA, one strand shown
Sample: in vitro
Concentration: not given
Setting: k-mer, scored over probes, only values ≥0.25
Direction: higher = stronger binding
Sequence | E-score
GCACGACA | 0.265
CGTGGAAA | 0.35
CGAACACG | 0.342
CACCCGCC | 0.284
GGCACGCA | 0.285
ACATGCTA | 0.359
CGCCACAC | 0.36
AGCACGGG | 0.294
CGTGCGAA | 0.334
CATGGTAC | 0.393
CCCACTCC | 0.255
CACGCGAG | 0.41
ACATGGCT | 0.328
CTCGCACA | 0.27
ATGGTGCA | 0.326
CATGCTAG | 0.338

Block 4
Target: CCNB1, cyclin fold, Cln2 fusion (human)
Technique: yeast growth competition, sequencing
Sample: yeast
Setting: strong parent motif
Relative to: not given
Direction: higher = stronger binding
Starting sequence: INSM1 docking peptide (human); PKAIRKLHFEDEV
Change | normalised enrichment score
PKAQRKLHFEDEV [I4Q] | 1.8
PKAIRWLHFEDEV [K6W] | 0.221
PKAIQKLHFEDEV [R5Q] | 1.57
PKAIRKTHFEDEV [L7T] | 0.41
PKAIRKLHFEDSV [E12S] | 1.48
PKAIRKLHFPDEV [E10P] | 2.1
PQAIRKLHFEDEV [K2Q] | 3.51
PKAIRKFHFEDEV [L7F] | -0.318
PKAIRKLHIEDEV [F9I] | -0.125
PKAIRKLHFEDIV [E12I] | 1.33
PKAIRCLHFEDEV [K6C] | 1.81
PKAIRKLRFEDEV [H8R] | 0.88
PKAIRKLAFEDEV [H8A] | 1.14
PKAIRKLHFGDEV [E10G] | 2.06
PKAIRKLHFEAEV [D11A] | 1.61
PKAARKLHFEDEV [I4A] | 1.2
PKAIRKLHCEDEV [F9C] | -0.112
PKAIRHLHFEDEV [K6H] | 1.02
PKARRKLHFEDEV [I4R] | 2.27
PTAIRKLHFEDEV [K2T] | 3.79
PWAIRKLHFEDEV [K2W] | 2.9
PKAIRKLHFIDEV [E10I] | 0.92
PKAIRKLHVEDEV [F9V] | 0.206
PKAKRKLHFEDEV [I4K] | 1.34
PKAIRKLKFEDEV [H8K] | 1.97

A few entries again (block 2):
Sequence | E-score
GAGGGTCA | -0.0619
CTGGATTA | -0.126
ACATTCGC | 0.108
GTCGGGAA | 0.176
CCCATTCA | -0.166
AACCAGTA | -0.0609
ATTTATTG | -0.204
AACTCCTT | -0.00024
ATGATTGC | -0.0112
ATAGGTGC | -0.0468
CGCCACCG | 0.254
GAAGGGGA | -0.139
